Results from different studies.
± marks the error that the study gave.
Cell line: HT-29

Structure (SMILES)	test	setting	IC50
Brc1ccc2c(c1)[I+]c1cc(Br)ccc1-2	oxygen consumption rate, Seahorse	30 min	5.96 ± 2.82 µM
CC1=C(CC(=O)O)c2cc(F)ccc2/C1=C\c1ccc(S(C)(=O)=O)cc1	cell growth or viability, thymidine uptake		89.4 µM
CC(C)=C[C@H]1OC[C@@H]([C@H]2CC[C@@]3(C)[C@@H]4CC[C@H]5C(C)(C)[C@@H](O)CC[C@@]56C[C@@]46CC[C@]23C)[C@@H]1O	cell growth or viability		> 10 µM
CC1=C(CC(=O)O)c2cc(F)ccc2/C1=C\c1ccc(S(C)(=O)=O)cc1	cell growth or viability, thymidine uptake	72 h	89 µM
Cc1c(N)nc([C@H](CC(N)=O)NC[C@H](N)C(N)=O)nc1C(=O)N[C@H](C(=O)N[C@H](C)[C@@H](O)[C@H](C)C(=O)N[C@H](C(=O)NCCC1=N[C@@H](c2nc(C(=O)NCCCCN=C(N)N)cs2)CS1)[C@@H](C)O)[C@@H](O[C@@H]1O[C@@H](CO)[C@@H](O)[C@H](O)[C@@H]1O[C@H]1O[C@H](CO)[C@@H](O)[C@H](OC(N)=O)[C@@H]1O)c1cnc[nH]1	cell growth or viability, resazurin	96 h	1.32 µg/mL
N#CSCc1ccc(CN2C(=O)C(=O)c3cc(Br)cc(Br)c32)cc1	cell growth or viability, MTS	48 h	~1 µM
COc1ccc(/C=C/C(/C=C2/C(=O)Nc3cc(Br)ccc32)=N\O)cc1	cell growth or viability, MTT	24 h	3.9 µM
COc1cc2oc3c(C)c(OC)c(CC=C(C)C)c(O)c3c(=O)c2c(CC=C(C)C)c1OC	cell growth or viability, fluorescence	2 h	1.4 µM
COc1ccc(/C=C/C(=O)/C=C2/C(=O)Nc3cc(Br)ccc32)cc1	cell viability, MTT	24 h	1.4 µM
COc1cc2oc3cc(OC)c(OC)c(CC=C(C)C)c3c(=O)c2c(O)c1CC=C(C)C	cytotoxicity, sulforhodamine B	72 h	> 20 µM
N=C(N)NCCC[C@H](NC(=O)[C@H](Cc1c[nH]c2ccccc12)NC(=O)[C@H](CCC(N)=O)NC(=O)[C@H](Cc1c[nH]c2ccccc12)NC(=O)[C@H](CCCNC(=N)N)NC(=O)[C@H](Cc1c[nH]c2ccccc12)NC(=O)[C@H](CCC(N)=O)NC(=O)[C@H](Cc1c[nH]c2ccccc12)NC(=O)[C@@H](N)CCCNC(=N)N)C(N)=O	cell growth or viability, MTT		100 µM
CC(C)=CCC/C(C)=C/Cc1c(O)c(CC=C(C)C)c(O)c2c(=O)c3cc(O)ccc3oc12	cytotoxicity, sulforhodamine B	72 h	16.1 µM
CC(C)=CC(=O)[C@@H](O)[C@@H](C)[C@H]1CC[C@@]2(C)[C@@H]3CC[C@H]4C(C)(C)[C@@H](O)CC[C@@]45C[C@@]35CC[C@]12C	cell growth or viability		> 10 µM

A few entries again:
Structure (SMILES)	test	setting	IC50
COc1cc2oc3cc(OC)c(OC)c(CC=C(C)C)c3c(=O)c2c(O)c1CC=C(C)C	cytotoxicity, sulforhodamine B	72 h	> 20 µM
N=C(N)NCCC[C@H](NC(=O)[C@H](Cc1c[nH]c2ccccc12)NC(=O)[C@H](CCC(N)=O)NC(=O)[C@H](Cc1c[nH]c2ccccc12)NC(=O)[C@H](CCCNC(=N)N)NC(=O)[C@H](Cc1c[nH]c2ccccc12)NC(=O)[C@H](CCC(N)=O)NC(=O)[C@H](Cc1c[nH]c2ccccc12)NC(=O)[C@@H](N)CCCNC(=N)N)C(N)=O	cell growth or viability, MTT		100 µM
